Measurements collected from several papers.
Parts stem from different laboratories: compare values within a part only.

Block 1 — method: aptamer microarray, sandwich; form: DNA with 2'F-ANA; medium: in vitro; concentration: 200 nM; with: Cy3 exosite-II aptamer, 400 nM; reading: higher = stronger binding; sequence: GGTTGGTGTGGTTGG
Target: Prothrombin, mature alpha-thrombin (F2, Homo sapiens, UniProt P00734)
Setting: whole 15-mer aptamer, many near background
`2'F-ANA at 1 5 7 8 9 11 12 13 14 15` — result for “mean fluorescence intensity”: 51.1 a.u.
For `2'F-ANA at 3 7 8 9 10 15`, “mean fluorescence intensity” read 568 a.u.
For `2'F-ANA at 2 4 5 7 9 10 11 12 13 14`, “mean fluorescence intensity” read 56.5 a.u.
`2'F-ANA at 1 2 4 5 6 13 14`: “mean fluorescence intensity” 57.4 a.u.
Under “mean fluorescence intensity”, `2'F-ANA at 1 3 4 7 10 13 14` is recorded as 78.9 a.u.
Under “mean fluorescence intensity”, `2'F-ANA at 1 4 5 7 9 13 14 15` is recorded as 75.5 a.u.
`2'F-ANA at 4 7 9 12 13 14 15` — result for “mean fluorescence intensity”: 94.3 a.u.
`2'F-ANA at 2 4 6 7 8 9 12 14 15`: “mean fluorescence intensity” 111 a.u.
For `2'F-ANA at 2 3 5 7 11 12 13 14 15`, “mean fluorescence intensity” read 57.1 a.u.
For `2'F-ANA at 1 2 3 5 6 7 8 11 13 14 15`, “mean fluorescence intensity” read 45.5 a.u.
Under “mean fluorescence intensity”, `2'F-ANA at 1 5 9 11 14` is recorded as 43.2 a.u.
`2'F-ANA at 1 6 10 12 14`: “mean fluorescence intensity” 91.3 a.u.
Under “mean fluorescence intensity”, `2'F-ANA at 1 2 5 6 9 10 12 13 14 15` is recorded as 58.8 a.u.
`2'F-ANA at 5 7 9 11 13 14 15`: “mean fluorescence intensity” 43.5 a.u.
For `2'F-ANA at 1 4 5 6 8 13 14 15`, “mean fluorescence intensity” read 75.3 a.u.
`2'F-ANA at 2 3 6 8 9 10 13 15` — result for “mean fluorescence intensity”: 252 a.u.
Under “mean fluorescence intensity”, `2'F-ANA at 1 3 4 5 6 7 9 10 12 14` is recorded as 46.5 a.u.
Under “mean fluorescence intensity”, `2'F-ANA at 1 2 5 7 8 10 11 12 13 14 15` is recorded as 48.8 a.u.
`2'F-ANA at 1 2 3 6 7 11 13 15` — result for “mean fluorescence intensity”: 232 a.u.
Under “mean fluorescence intensity”, `2'F-ANA at 2 4 5 9 10 13 15` is recorded as 56.4 a.u.
`2'F-ANA at 4 5 6 7 8 10 11 12 14` — result for “mean fluorescence intensity”: 60.4 a.u.
`2'F-ANA at 4 5 7 8 9 13` — result for “mean fluorescence intensity”: 54 a.u.

Block 2 — method: RNA Bind-n-Seq; form: RNA; medium: in vitro; concentration: 365 nM; relative to: no-protein control; reading: higher = stronger binding
Target: RNA binding protein fox-1 homolog 2, RRM domain, GST-SBP tag (RBFOX2, Homo sapiens, UniProt O43251-10, residues 100-194)
Setting: natural RNA segment, single round, ends assumed
For `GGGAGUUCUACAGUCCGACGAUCAUACACAGAUGUUCUAUCUAGAACAUUUCCAUUGCAACAGCUAAGUUUGUGUUUCGUGGUUUUUUUAUGUUUUGUUUGUUUUUUGAAAAUGAGAGAAGAGUUGGAGAUAUUGGAAUUCUCGGGUGCCAA`, “RBNS enrichment (R)” read 1.79.
Under “RBNS enrichment (R)”, `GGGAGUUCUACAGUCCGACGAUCCAUUCCUGCAUUCUGCCAUAGGAAUCACAACUUCCCACAUCAGGCCAUGCUUGCCUAAGACCUCGUUCUGUUCUCCCAUAAGGCCGUCCUUCCCACAGUACCUUAAGAUUUGGAAUUCUCGGGUGCCAA` is recorded as 0.65.
`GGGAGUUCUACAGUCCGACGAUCGGCCUACGCCAAAGCACAGGAUGGGGCGGGCAGGAAGCCCUCUCCCAAGAUCGAGUUGGCCGAGGAUGGAUGAUUGUGGCAGCAGAAGCCGUUGCAGCCCCACGUUGUGCUGGAAUUCUCGGGUGCCAA`: “RBNS enrichment (R)” 0.523.
Under “RBNS enrichment (R)”, `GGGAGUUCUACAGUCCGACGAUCCUUCGUGGUAUCUUCACAGAUCACAAGUAAAUGUGAAUCUGAAAGAUAGCAUCCACACAAAAUUCUAUAAUCGGAAAGAUCUUUGUAACUAAUCUGAAAUACACAUAAAUUGGAAUUCUCGGGUGCCAA` is recorded as 0.64.
Under “RBNS enrichment (R)”, `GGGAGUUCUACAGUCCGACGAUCCCGACUUCCUUUCUGCGUCACCAGUGUCGUCAGCAGAGAGAGGACAGCACAGGCUCAAGGUUGGUAGUGAAGUCAGGUUCGGGGUGCAUGGGCUGUGGUGGUGUUGAUCAUGGAAUUCUCGGGUGCCAA` is recorded as 1.42.
`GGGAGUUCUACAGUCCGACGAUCUAGUCCCUUCUGUUUUAAAGGAGGCAUUUUGGAUAUUAAGCAACUUAAUUUGAAAGAACUUCUUUUGGUGGACUACCAGAGAUUAUUAUUUUGAUAGUGGUAUUUAAAAGUGGAAUUCUCGGGUGCCAA` — result for “RBNS enrichment (R)”: 0.415.
For `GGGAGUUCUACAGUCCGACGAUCAAGUCCUUUUCUUUCUUCUUGAGAGACCUAAAGAGAUACUGUAGCUUGUUUUUCUGAUGGCAAAUGGGAACUGUGACAAAGUGAAGUCCUUGUAAAGCGGUGAUACAACUUGGAAUUCUCGGGUGCCAA`, “RBNS enrichment (R)” read 0.506.
For `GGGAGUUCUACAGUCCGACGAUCGGCCUUUCUCAGAAGACUGUAAUGUACCUGAAGUUUCUGAAAUAUUGCAAACCCACAGAGUUUAGGCUGGUGCUGCCAAAAAGAAAAGCAACAUAGAGUUUAAGUAUCCAUGGAAUUCUCGGGUGCCAA`, “RBNS enrichment (R)” read 0.672.

Block 3 — method: universal PBM; form: double-stranded DNA, one strand shown; medium: in vitro; concentration: 600 nM; reading: higher = stronger binding
Target: Sal-like protein 4, full length isoform A (SALL4, Homo sapiens, UniProt Q9UJQ4, residues 1-1053)
Sequence of UniProt Q9UJQ4 (whole entry, looked up): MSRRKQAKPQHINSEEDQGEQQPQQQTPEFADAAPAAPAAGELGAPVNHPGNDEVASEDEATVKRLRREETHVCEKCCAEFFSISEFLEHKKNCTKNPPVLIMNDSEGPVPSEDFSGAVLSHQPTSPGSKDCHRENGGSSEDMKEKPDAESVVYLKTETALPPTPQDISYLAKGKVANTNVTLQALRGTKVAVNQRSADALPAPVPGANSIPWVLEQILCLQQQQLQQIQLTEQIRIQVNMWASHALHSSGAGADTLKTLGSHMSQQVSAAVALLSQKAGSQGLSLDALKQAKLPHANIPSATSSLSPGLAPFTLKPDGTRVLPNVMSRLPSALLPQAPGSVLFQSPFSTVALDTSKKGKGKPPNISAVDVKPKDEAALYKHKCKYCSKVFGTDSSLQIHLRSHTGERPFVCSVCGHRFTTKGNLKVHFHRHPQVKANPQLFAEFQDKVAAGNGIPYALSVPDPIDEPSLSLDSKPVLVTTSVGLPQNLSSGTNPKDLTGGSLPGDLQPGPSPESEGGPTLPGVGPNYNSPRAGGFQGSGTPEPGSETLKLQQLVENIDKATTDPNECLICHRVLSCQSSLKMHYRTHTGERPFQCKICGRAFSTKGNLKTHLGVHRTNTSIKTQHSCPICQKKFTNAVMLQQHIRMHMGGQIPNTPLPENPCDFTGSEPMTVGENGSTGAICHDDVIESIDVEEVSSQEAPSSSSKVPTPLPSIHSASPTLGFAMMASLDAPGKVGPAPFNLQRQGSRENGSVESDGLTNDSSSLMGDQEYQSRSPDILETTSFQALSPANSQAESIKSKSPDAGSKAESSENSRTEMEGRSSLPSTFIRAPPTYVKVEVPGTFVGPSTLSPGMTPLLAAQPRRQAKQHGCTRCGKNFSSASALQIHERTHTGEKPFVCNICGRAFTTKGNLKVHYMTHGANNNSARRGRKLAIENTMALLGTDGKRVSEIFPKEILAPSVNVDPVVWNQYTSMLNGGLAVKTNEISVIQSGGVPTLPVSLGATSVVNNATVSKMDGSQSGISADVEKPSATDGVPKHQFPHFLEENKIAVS
Setting: 8-mer, flanks averaged, mean of replicates
`ATAGTACG` has an E-score of 0.132.
For `ACTCCGCG`, the E-score was -0.289.
`TCCATGGA` gave an E-score of -0.0146.
`GGGACTGA` gave an E-score of -0.234.
For `TAAGCGAA`, the E-score was 0.0831.
`TCCCAGGA` gave an E-score of -0.266.
For `GAAGCCAC`, the E-score was -0.0178.
With `AGTTCGGG` the E-score was -0.076.
For `CATTGAGA`, the E-score was 0.145.
With `TTAACGAA` the E-score was 0.194.
With `AATCTTCA` the E-score was 0.27.
`AACGAGTC` has an E-score of 0.111.
With `TACGCACA` the E-score was 0.122.
For `ATTGCCCG`, the E-score was -0.125.
`TGAGACCA` gave an E-score of -0.0906.
`AATGAGCC` gave an E-score of -0.104.
The E-score of `CAAGGACG` is reported as -0.231.
`AGCGGCGA` gave an E-score of -0.176.
The E-score of `CAATCTTC` is reported as 0.0577.
`ATCGCTGC` has an E-score of -0.118.
`AGTTCGAG` gave an E-score of -0.0344.
`ACGTGTAC` has an E-score of -0.0192.
`CGTTGGCC` gave an E-score of -0.27.

Block 4 — method: protein binding microarray; form: double-stranded DNA, one strand shown; medium: in vitro; concentration: not given; relative to: not given; reading: higher = stronger binding
Target: Histone acetyltransferase KAT6A, winged helix 2, GST fusion (KAT6A, Homo sapiens, UniProt Q92794, residues 85-181)
Setting: 8-mer, flanks averaged, mean of 2 arrays, mostly near background
Target sequence (chain): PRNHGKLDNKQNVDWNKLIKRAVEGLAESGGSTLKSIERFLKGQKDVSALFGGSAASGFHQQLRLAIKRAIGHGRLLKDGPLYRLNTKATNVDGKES
With `GTTACCTA` the E-score was -0.113.
With `GCTTCATA` the E-score was -0.0114.
`CATGCGAC` has an E-score of 0.115.
With `CCTAAAAC` the E-score was 0.0273.
For `CGGATCCC`, the E-score was 0.0916.
`CCACCGCG` has an E-score of 0.182.
For `GCTCGGGA`, the E-score was 0.0586.
`CCAGCCAG` has an E-score of -0.00647.
`AGACTTCC` has an E-score of -0.258.
With `CACACGCG` the E-score was 0.0611.
`CTCGTGCA` gave an E-score of 0.0675.
`AAAGGGCC` has an E-score of -0.117.
For `ATGAATCC`, the E-score was -0.109.
The E-score of `ACGCTGAT` is reported as -0.0522.
For `GAATCAGC`, the E-score was -0.0434.
With `ACCTACCT` the E-score was -0.115.
`CACAGCGG` has an E-score of 0.0194.
The E-score of `ACAAAGCA` is reported as 0.287.
The E-score of `AAGGACAT` is reported as -0.0103.
`CCACCTCG` has an E-score of -0.0107.
With `GGCAGCCA` the E-score was -0.063.
The E-score of `CATAGAAA` is reported as 0.236.
The E-score of `GTCCAACA` is reported as 0.0128.
The E-score of `CCTCCAAA` is reported as 0.106.
The E-score of `CGCGTTAC` is reported as -0.0664.
